# Results gathered from unrelated publications.
# Parts stem from different laboratories: compare values within a part only.

# Set 1
# Target: Histone acetyltransferase KAT6A, winged helix 2, GST fusion (KAT6A, Homo sapiens, UniProt Q92794, residues 85-181)
# Technique: protein binding microarray
# Molecule type: double-stranded DNA, one strand shown
# Matrix: in vitro
# Concentration: not given
# Notes: 8-mer, flanks averaged, mean of 2 arrays, mostly near background
# Relative to: not given
# Reading: higher = stronger binding
# Residues (chain): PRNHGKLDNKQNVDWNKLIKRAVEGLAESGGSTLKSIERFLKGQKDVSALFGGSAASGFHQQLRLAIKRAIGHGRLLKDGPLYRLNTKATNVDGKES
Strand,E-score
CTCCACAA,0.117
CCGAATAA,0.0851
AGACCGAT,-0.159
GAGTCATA,-0.122
AATAATCC,0.022
AATGCCCC,-0.205
CTCCTTGA,-0.16

# Set 2
# Target: Hepatocyte nuclear factor 3-alpha (Foxa1, Mus musculus, UniProt P35582, residues 1-468, full length assumed)
# Technique: EMSA with sequencing
# Molecule type: double-stranded DNA, one strand shown
# Matrix: in vitro
# Concentration: 10 and 20 nM
# Notes: whole designed probe, mean of two concentrations, ends assumed
# Relative to: negative control set to 0
# Reading: higher = stronger binding
# All sequences stand within: GTGAGCGGTGCCCATTGATGGGGAAC … TTTCACTGGGATCGTGGGGAC
# Target sequence (chain): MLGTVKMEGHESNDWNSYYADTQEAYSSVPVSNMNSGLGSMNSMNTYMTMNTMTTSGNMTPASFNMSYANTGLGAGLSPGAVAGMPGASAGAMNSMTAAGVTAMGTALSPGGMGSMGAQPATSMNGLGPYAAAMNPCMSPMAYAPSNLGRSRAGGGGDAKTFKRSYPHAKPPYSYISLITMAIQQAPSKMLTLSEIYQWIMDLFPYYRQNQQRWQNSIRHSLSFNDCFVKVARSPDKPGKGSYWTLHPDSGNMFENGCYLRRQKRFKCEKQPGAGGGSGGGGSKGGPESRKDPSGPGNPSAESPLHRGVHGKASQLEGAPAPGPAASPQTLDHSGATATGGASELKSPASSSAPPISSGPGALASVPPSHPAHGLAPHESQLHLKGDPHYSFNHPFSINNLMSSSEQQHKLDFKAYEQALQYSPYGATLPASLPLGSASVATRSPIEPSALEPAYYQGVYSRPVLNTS
Strand,normalised bound fraction
CATAGTGCTGCCAAGTAATTCTCTAGGTTGTAGAATTATTATTTATTCAGAACACTAAGCTAGATTCAGTTTTCTGCTAAGCTACAAAATAAGTAATCTTGAATTACTTGGATTCCAGGATCCTGGATATAGACTAAAGATGACATTCCATTATATTTAGAAAATGACTGTTAAGTAAGAGAAAATTTCCAGA,0.211 ratio
GCTTCTTAGCCCTGGTGCTATTTCTTGGCTTCCACACATTCTGTACAATTGCAGCCCTGACAGCTAATTTAGCTTCACTGTTGGTGAGTTTCTTGTTTGCTTTTGCTGCTGTCCAAATGATTCAAGGTGCTGAATGACGCCATCTGTATGTTGCTAGAGGCTGAGAGGGGGCTGGGAGGAAGCCTTAAGTCAA,0.365 ratio
TTTCTTTAAAGTCCATTAACTTTACTTAAGAATACATCCTGGTATTGGTCATTCTTGATATTCTCAGGTACACAGTGTATTTATTTATTTATTAAATTACTTTTGAGATGAAGTCTCGCTCTGTCACCCAGGCTGGAGTGCAGTGGCACGATCTTGGCTCACTGCAACCTCCACCTCCTGGGTTCAAACAATT,0.394 ratio
ATCTTCCCCCTCTTCCTTGCCCCACCAGCTCACCTTCCCGGGTTATTTGCACAAAGGAAAATAAATAAAGCCGGCATTCGTTAACCCTCTTCTGGCGCAAACTGCTGTTTGCTCTGCATGAATCATGGTCCTTACGCGACGCCAGGCTCCGGGAGAGCAAAGCACCGTGTCAGGCGCATGATCCGGGGTGGCC,0.37 ratio
TGTATCCATCTGGGCAGTATCTTCTCTGGGCCTGGCCTGTCATAGGTGCTTCAGGTTTCCCCATTTGAACCAGATACCAGTCGGGTTACCGGATGTTTGCTTAAAATGAGTCATAGGCTACGTGCTATTCCTGTGCTGCTTCCAGCTAGGACTGATCGAATCAGTCTGGATTTTCCTTGGGGTGATCCGCAGG,0.161 ratio
CTTCTTTCCTTCCTTCTTTCTTTCTCTTTCCTGTTTAAGTGAAGTGTGCAGAGGCAGATTGGGGTAGATGTTTACCTCTGTTGACATCAATGTGTCATCTGCTTCCCACTGCCTCACTGGGCCAGGTGGGGGCAGAAACCCAGCTCTCCAATGGGTGACATCCACACAGGAGGCAGGGGGGAAGTAACCTGTC,0.0508 ratio
ATATACTCTGGAGCCCCTCCAGTGAATTCTTCATATCGGTTGTACTTTCCAACTCCAGGATTTCCTTTTGGTTCTTTTTCATAATTTCTCTCTTGTTTATCTTGAGGACTCTCTATTTGATGAGCCATTGTCATCATACTTTTCTTTATCTCTTTAAGTACAGTCATAGGCAGTTTTTATCACTTGCCTTTTT,0.202 ratio

# Set 3
# Target: Transcription factor SOX-2, HMG box (Sox2, Mus musculus, UniProt P48432, residues 41-119)
# Chain of UniProt P48432 (41-119, looked up): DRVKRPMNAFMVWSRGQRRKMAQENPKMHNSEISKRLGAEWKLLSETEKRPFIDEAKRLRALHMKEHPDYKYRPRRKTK
# Technique: Spec-seq
# Molecule type: double-stranded DNA, one strand shown
# Matrix: in vitro
# Concentration: not given
# Notes: whole probe, mean of replicates
# Relative to: not given
# Reading: lower = stronger binding
# All sequences stand within: GAGTCGTCTCGTCAGCAC … CCGTAGAGCACTCAGGTC
Strand,relative binding energy [ln ratio]
CAAGGTT,0.934
TGATGTT,0.335
CATAAGT,-0.104
CATTATC,-1.71
GAATGTT,0.305
AACGGTT,-0.589

# Further values, each from its own experiment
Molecule,target,test,test system,conditions,how to read,quantity,value
"PhoQ, residues 284 288 289 292 302 303 SSTMSV","PhoP, residues 12 14 15 18 19 NQGLL (Escherichia coli, UniProt P23836)","Sort-seq, measured: YFP reporter",E. coli,"PhoQ-PhoP variant library, added: 10 µM Mg2+","relative to: high Mg2+ state, higher = stronger signaling",fold induction,3.24

# Excerpt of the above (set 1):
Strand,E-score
AATAATCC,0.022
CCGAATAA,0.0851
AGACCGAT,-0.159
